Results from different studies.
Compare with care: the assays were run in different laboratories.
Target: D(1A) dopamine receptor (DRD1, Homo sapiens, UniProt P21728)
UniProt P21728, sequence (whole entry, looked up): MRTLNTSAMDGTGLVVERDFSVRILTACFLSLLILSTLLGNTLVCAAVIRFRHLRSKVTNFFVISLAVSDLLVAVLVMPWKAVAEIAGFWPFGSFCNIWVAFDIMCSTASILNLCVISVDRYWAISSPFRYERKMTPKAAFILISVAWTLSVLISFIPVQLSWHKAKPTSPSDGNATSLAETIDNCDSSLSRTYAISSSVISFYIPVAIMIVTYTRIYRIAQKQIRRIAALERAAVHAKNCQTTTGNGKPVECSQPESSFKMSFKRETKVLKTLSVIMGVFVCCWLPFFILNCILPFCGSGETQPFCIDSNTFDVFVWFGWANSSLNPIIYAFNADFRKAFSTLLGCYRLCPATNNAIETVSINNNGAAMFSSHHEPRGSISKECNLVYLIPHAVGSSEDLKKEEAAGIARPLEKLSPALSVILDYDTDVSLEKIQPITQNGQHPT

For `CCC(=O)N(C)c1ccc(Cl)c(Cl)c1`, the inhibition was less than 10% (ligand displacement, radioligand; 10 µM).
With `COc1ccc(C#CC2=C[C@H]3C[C@@]4(OC(=O)C=C24)[C@H]2CC[C@H](C(OC)OC)N32)cc1` the inhibition was 14% (ligand displacement, radioligand; 10 µM).
The inhibition of `COCC(=O)N1CCc2cc(-c3csc(NC(=O)c4cc(OC)cc(OC)c4)n3)ccc21` is reported as 6% (cell-free assay; 10 µM).
With `Cn1ccc2cc(-n3c(=O)[nH]c4sc5c(c4c3=O)CCCC5)ccc21` the inhibition was 14% (cell-free assay, radioligand; 10 µM).
`CC(C)Cn1c(SCC(=O)N2CCc3ccccc3C2)nc2cc(Cl)ccc2c1=O` gave an inhibition of 1% (ligand displacement, radioligand; 10 µM).
With `Cc1[nH]nc2c1N=C(c1ccccc1Cl)c1cnc(N3CCOCC3)cc1N2` the inhibition was 0% (cell-free assay; 10 µM).
For `COc1ccc(C(=O)Nc2c(-c3cccs3)nc3ccccn23)cc1`, the inhibition was less than 50% (ligand displacement, radioligand; 10 µM).
For `CO[C@@H](C)c1c(NC(=O)Nc2cnc(-n3nccn3)c(C(F)(F)F)c2)cnc2sc(C)nc12`, the inhibition was 6.1% (ligand displacement, radioligand; 10 µM).
The inhibition of `COc1ncc2nc(C)n(Cc3ncc(S(N)(=O)=O)cc3F)c2c1-c1ccccc1` is reported as -8.95% (antagonist, cell-based; 10 µM).
With `c1ccc(OC[C@H]2CN(CCN3CCc4ccccc43)CCO2)nc1` the inhibition was 29.9% (radioligand binding; concentration not given, together with: [3H]SCH23390).
For `O=C1c2sc(-c3ccc(N4CCC(F)C4)nc3F)nc2CCN1c1cccnc1` (stereo not drawn), the inhibition was -2% (ligand displacement, radioligand; 1 µM).
`O=C(CN1CCO[C@@H](COc2cccc(Cl)c2)C1)N1CCc2ccccc21` gave an inhibition of 23% (radioligand binding; concentration not given, together with: [3H]SCH23390).
For `COc1ccc(S(=O)(=O)N2CCc3ccccc3C2)cc1N1CCN(C(=O)c2ccc(F)cc2C(F)(F)F)CC1`, the inhibition was -11.4% (ligand displacement, radioligand; 1 µM).
For `CNC(=O)C[C@H](Cc1ccc(C#N)cc1)NC(=O)c1cc(-c2ccc(CN[C@H](C)c3ccc(C)cc3)o2)ccc1Cl`, the inhibition was 1% (agonist response, antagonist; human cells; 10 µM, D1 antagonist).
`Cc1ccnc(OC[C@H]2CN(CCN3CCc4ccccc43)CCO2)c1` has an inhibition of 56.4% (radioligand binding; concentration not given, together with: [3H]SCH23390).

Repeated from above:
For `CNC(=O)C[C@H](Cc1ccc(C#N)cc1)NC(=O)c1cc(-c2ccc(CN[C@H](C)c3ccc(C)cc3)o2)ccc1Cl`, the inhibition was 1% (agonist response, antagonist; human cells; 10 µM, D1 antagonist).
The inhibition of `COCC(=O)N1CCc2cc(-c3csc(NC(=O)c4cc(OC)cc(OC)c4)n3)ccc21` is reported as 6% (cell-free assay; 10 µM).
